Experimental data gathered from unrelated publications.
Each numbered part is a random draw from the data of one study; scales do not carry over between parts.

Sample 1 — method: universal PBM; form: double-stranded DNA, one strand shown; matrix: in vitro; tested at: 600 nM; direction: higher = stronger binding; endpoint: E-score
Target: Sal-like protein 4, full length isoform A (SALL4, Homo sapiens, UniProt Q9UJQ4, residues 1-1053)
Chain of UniProt Q9UJQ4 (whole entry, looked up): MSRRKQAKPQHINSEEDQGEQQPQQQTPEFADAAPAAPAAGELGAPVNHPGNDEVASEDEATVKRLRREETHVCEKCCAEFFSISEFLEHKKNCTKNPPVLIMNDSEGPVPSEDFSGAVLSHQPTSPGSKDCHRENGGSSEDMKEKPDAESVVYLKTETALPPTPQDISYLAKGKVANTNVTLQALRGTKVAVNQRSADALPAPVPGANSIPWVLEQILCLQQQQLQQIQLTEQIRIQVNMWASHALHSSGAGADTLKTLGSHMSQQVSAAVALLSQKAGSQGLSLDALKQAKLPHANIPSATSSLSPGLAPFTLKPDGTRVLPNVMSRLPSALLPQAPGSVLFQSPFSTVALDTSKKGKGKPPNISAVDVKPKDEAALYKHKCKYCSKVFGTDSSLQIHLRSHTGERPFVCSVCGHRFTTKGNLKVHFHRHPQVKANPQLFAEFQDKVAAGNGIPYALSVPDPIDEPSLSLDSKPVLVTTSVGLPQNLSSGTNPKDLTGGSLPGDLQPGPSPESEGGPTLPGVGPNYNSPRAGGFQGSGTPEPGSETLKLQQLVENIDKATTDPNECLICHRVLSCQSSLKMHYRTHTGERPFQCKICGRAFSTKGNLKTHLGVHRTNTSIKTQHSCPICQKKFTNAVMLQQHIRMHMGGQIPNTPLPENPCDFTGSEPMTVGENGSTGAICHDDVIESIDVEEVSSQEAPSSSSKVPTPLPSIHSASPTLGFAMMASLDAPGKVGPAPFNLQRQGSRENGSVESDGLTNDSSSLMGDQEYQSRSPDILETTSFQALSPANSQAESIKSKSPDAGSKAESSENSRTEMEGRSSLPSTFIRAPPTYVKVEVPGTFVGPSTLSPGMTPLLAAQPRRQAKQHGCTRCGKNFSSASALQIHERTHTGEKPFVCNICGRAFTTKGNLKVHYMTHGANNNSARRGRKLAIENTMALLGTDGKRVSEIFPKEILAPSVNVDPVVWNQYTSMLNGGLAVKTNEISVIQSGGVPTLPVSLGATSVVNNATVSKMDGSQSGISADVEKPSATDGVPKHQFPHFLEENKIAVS
Notes: 8-mer, flanks averaged, mean of replicates
CCAGGATA: 0.0293
CCACTAGG: -0.268
CGTCTGAC: -0.165
AGTTAGCA: 0.127
AGAAGAAC: 0.00445
TCGGCAGA: -0.162
CGAGCTTA: -0.108
AGGGCTTA: -0.0914
GGAGGCCA: -0.295
CTTGCATC: -0.203
ATTCGACC: -0.102
GAAACATA: 0.247
CGACGTCG: -0.191
GACCACCC: -0.339
CATTGTGC: 0.00122
AAGATGAG: 0.00558

Sample 2 — method: protein binding microarray; form: double-stranded DNA, one strand shown; matrix: in vitro; tested at: not given; relative to: not given; direction: higher = stronger binding; endpoint: E-score
Target: Histone acetyltransferase KAT6A, winged helix 1, GST fusion (KAT6A, Homo sapiens, UniProt Q92794, residues 1-85)
Notes: 8-mer, flanks averaged, mean of 2 arrays, mostly near background
Construct (chain): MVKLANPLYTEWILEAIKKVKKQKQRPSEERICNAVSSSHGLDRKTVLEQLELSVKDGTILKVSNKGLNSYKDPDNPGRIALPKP
CGTACGCC: 0.358
ATAGCCTA: -0.0469
AGTATGCG: 0.333
TTCCCAAA: -0.344
ACAGGTCG: -0.0246
ACATCCCT: -0.0653
ATAATGAA: -0.258
ACTTCTGA: -0.118
CGGCCACA: 0.173
TAGGAGAA: -0.225
GTGCGAAC: 0.125
CACGAACG: -0.00958
AATCGACG: 0.0325
TCACAGCA: -0.0423
AACGATAG: -0.0623
CCATGGCG: 0.205
ATCACTTC: -0.157
CCCAGAGC: -0.0972
CTTTGGTC: -0.194
ATCCCCAC: -0.18
ACGCAATC: 0.115
AGAAAGTC: -0.0509

Sample 3 — method: RNA Bind-n-Seq; form: RNA; matrix: in vitro; tested at: 1 µM; notes: whole 134-nt RNA, ends assumed; added: 150 mM KCl; relative to: input library; direction: higher = stronger binding; endpoint: log2 enrichment
Target: Ras GTPase-activating protein-binding protein 1, RRM domain (G3BP1, Homo sapiens, UniProt Q13283)
Chain of UniProt Q13283 (whole entry, looked up): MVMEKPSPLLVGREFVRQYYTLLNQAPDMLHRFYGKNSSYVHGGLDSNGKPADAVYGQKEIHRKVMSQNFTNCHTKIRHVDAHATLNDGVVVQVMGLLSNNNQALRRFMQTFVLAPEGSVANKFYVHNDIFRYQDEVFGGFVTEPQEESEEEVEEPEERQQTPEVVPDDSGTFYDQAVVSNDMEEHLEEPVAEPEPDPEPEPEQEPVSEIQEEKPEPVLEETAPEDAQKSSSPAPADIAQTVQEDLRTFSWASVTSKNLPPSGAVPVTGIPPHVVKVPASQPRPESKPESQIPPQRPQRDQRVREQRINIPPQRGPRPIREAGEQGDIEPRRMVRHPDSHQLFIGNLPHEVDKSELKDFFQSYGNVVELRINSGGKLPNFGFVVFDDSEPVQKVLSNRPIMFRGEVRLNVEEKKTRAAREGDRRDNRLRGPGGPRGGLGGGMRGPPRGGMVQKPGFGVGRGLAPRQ
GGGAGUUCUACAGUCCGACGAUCAGUCCUGUGCUACACAUCGUAUGUACCGAAUCGGGUGGGUUUUUGGGUUUUUUUGGGAAAGUAUUAUGUUACGCCGUUCGGAUCUGCACUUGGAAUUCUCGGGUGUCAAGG: 0.343
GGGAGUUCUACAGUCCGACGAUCUUCAGUUGGAUGGAUUUAUUGCUCGAAACUGGGCCAAUCAAAGAUCAGCUUUGGGAAGUGCUCUUGAUCCACUUGCUGAUAAAAUACUUAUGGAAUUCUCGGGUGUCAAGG: -0.238
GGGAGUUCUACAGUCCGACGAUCCACAAACAACACGCACCCACACAGACACAGAGGGAAGGGGUUGGGAUGGGGACAGGGUGCACAGCAGGGCGGGGUAGGACCCCAGCCCCUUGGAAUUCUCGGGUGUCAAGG: -0.0864
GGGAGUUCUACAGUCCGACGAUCCCUGUGCUACACAUCGUAUGUACCGAAUCGGGAAAAAAAGGAAAAAAAGGAAAAAAAGGGGAAAGUAUUAUGUUACGCCGUUCGGAUCUGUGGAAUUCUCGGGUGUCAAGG: 0.0937
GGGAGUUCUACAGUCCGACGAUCCACAGACAACACGCACAAACACAGACACAGAGGGAAGGGGUUGGGAUGGGGACAGGGUGCACAGCAGGGCGGGGUAGGACCCCAGCCCCUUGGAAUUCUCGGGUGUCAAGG: -0.129
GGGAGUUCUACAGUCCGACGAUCUGCACACCGCCUUGCACAUAGCAGAGGCUCCGGGCUCACUCCUUCCUGGUGGGAAAGGAAGAUGCCUGUCCUCUCCGUGGAAGACCCUGGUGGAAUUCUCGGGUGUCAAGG: -0.475
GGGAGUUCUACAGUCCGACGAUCCUCAAGUCCUGUGCUACACAUCGUAUGUACCGAAUCGGGCCGGCCGGGGCCGGAAAGUAUUAUGUUACGCCGUUCGGAUCUGCACUUCCAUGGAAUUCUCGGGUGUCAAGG: -0.341
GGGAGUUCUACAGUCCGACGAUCAGUCCUGUGCUACACAUCGUAUGUACCGAAUCGGGUUUUUGGGAGGGAAAAAAAGGGAAAGUAUUAUGUUACGCCGUUCGGAUCUGCACUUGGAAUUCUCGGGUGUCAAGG: 0.215
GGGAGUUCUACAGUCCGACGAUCCCUGUGCUACACAUCGUAUGUACCGAAUCGGGGCCCCCCGGCCCCCCGGGGCCCCCCGGGGAAAGUAUUAUGUUACGCCGUUCGGAUCUGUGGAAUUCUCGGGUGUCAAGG: -0.647

Sample 4 — method: RNA Bind-n-Seq; form: RNA; matrix: in vitro; tested at: 365 nM; relative to: no-protein control; direction: higher = stronger binding; endpoint: RBNS enrichment (R)
Target: RNA binding protein fox-1 homolog 2, RRM domain, GST-SBP tag (RBFOX2, Homo sapiens, UniProt O43251-10, residues 100-194)
Notes: natural RNA segment, single round, ends assumed
Construct (chain): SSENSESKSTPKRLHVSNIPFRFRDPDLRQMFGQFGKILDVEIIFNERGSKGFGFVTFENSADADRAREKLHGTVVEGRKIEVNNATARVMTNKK
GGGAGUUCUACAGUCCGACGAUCAUGAAACGUGAUGAACGCACCUUAAUAAAUCCAGAUAUUAAAGUUGUAGACUUUGGUAGUGCAACAUAUGAUGACGAACAUCACAGUACAUUGGUAUCUACAAGACAUUAUGGAAUUCUCGGGUGCCAA: 0.316
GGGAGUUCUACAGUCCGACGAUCGGCUCAACUCUGUGUCUCCUGAGCACCAGCAGCCAAGCCUGUUCAUGAUGAUGUGCACACAGUCAUUCUACAGGAGCUUUGCACAGCCUUCCUGCAGUUCUCAAAGGGGAUGGAAUUCUCGGGUGCCAA: 0.869
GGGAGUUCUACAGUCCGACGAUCCCUACCAGCUGCUGCUAGCCCUCUGUGGUUGUGCACCCCUCUUGCCCCCAUUCAGGGGCCGACUAACACCCUUUAUCCAAUGGUGCUAACCCCGGCUCUCCCUUUUCCACUGGAAUUCUCGGGUGCCAA: 0.325
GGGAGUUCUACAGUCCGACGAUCAAAGUCAUUCCUUCCUUCCUUCUGUUUCAAGUCAUUGCUGCCAGAUCUGGCUUAAUAAGACUUGGUGUGGCUUAUCAGGUCACAUGUCCACCACAUCUUGAUUCUUGCAGUGGAAUUCUCGGGUGCCAA: 0.386
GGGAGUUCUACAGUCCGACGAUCAUCUUUGUUAAGUUUCAUGAUGUGUUAGUACACUGUUCUAUUGCUGUAAAGAGACACCAUGACAAAGACAACUCAUAUAAAAGGAAGUGUUGAGUUGGGGGCUUGCUUAUUGGAAUUCUCGGGUGCCAA: 0.416
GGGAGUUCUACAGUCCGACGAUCGAUUGGAUGGAGUGGAUGUCUUCACUCAGUCUGCCAAUUCCCAUCCUAACCUCUUCUGGAAACACCCUAGCAUGUUUUCCCAGCUAGCUGGGUAUCCGUUCACCCAACCAUGGAAUUCUCGGGUGCCAA: 1.42
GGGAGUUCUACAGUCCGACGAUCCACUUUAAAAGUGCCUACAGAGUUCUGUAAAUGAAAACACAGCUCUGCAUGAGUUCAAACCUGUCGUUCCUCCUUACAGUAGGAAUGGCACAUAUUGAGGCGAUCAUAAGUGGAAUUCUCGGGUGCCAA: 0.688
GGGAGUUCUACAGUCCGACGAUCAUUGUAAAGAAACGGAAAAAGUCACAAAAAAGUUUGUAUAAAGACAUAUUUUUGUACUACAUGGGGACUCUUCCUGCAUGUCAGCAAUAAAACUUCCUGAUCUGGAACCAUGGAAUUCUCGGGUGCCAA: 2.52

Excerpt of the above (sample 2):
GTGCGAAC: 0.125
CACGAACG: -0.00958
AATCGACG: 0.0325
TCACAGCA: -0.0423
